Results of several laboratories.
Compare with care: the assays were run in different laboratories.
ABL1: Tyrosine-protein kinase ABL1 (ABL1, Homo sapiens, UniProt P00519)
ABL1 non-phosphorylated: Tyrosine-protein kinase ABL1, non-phosphorylated (ABL1, Homo sapiens, UniProt P00519)

Structure (SMILES) | target | test | conditions | how to read | measurement | result
N[C@H](C(=O)N1CCCC1)C1CCN(c2nccc3c(-c4ncc(Cl)cc4Cl)cccc23)CC1 | ABL1 | enzyme activity, inhibitor | 10 µM |  | inhibition | 10%
CCOC(=O)[C@@H]1Cc2c(cc([N+](=O)[O-])cc2[N+](=O)[O-])[C@H](O)[C@]12C(=O)Nc1ccc(Br)cc12 | ABL1 non-phosphorylated | binding, competition with immobilised ligand | 0.1 µM |  | remaining binding | 74%
O=C1NC(=O)c2c1c1cc(F)c[n+]3c1c1c2c2cc(O)ccc2[n]1[Ru-4]312([N]=C=S)[S+]3CC[S+]1CC[S+]2CC3 (centres unmarked) | Tyrosine-protein kinase ABL1 (ABL1, Homo sapiens, UniProt P00519, Y253F) | enzyme activity | 100 nM, human enzyme, added: 10 µM ATP | baseline: untreated | remaining activity | 118%
CC(C)[C@H]1NC(=O)C[C@H]2/C=C/CCSSC[C@@H](NC1=O)C(=O)N[C@H](Cc1cccc3ccccc13)C(=O)NCC(=O)O2 | Tyrosine-protein kinase ABL1 (ABL1, Homo sapiens, UniProt P00519, E255K) | enzyme activity, inhibitor | 10 µM |  | inhibition | -4.8%
CS(C)(=O)=Nc1ccc(-c2ccc(-c3nc4cc(O[C@@H]5CO[C@H]6[C@@H]5OC[C@H]6O)[nH]c4cc3F)cc2)cc1 | Tyrosine-protein kinase ABL1 (ABL1, Homo sapiens, UniProt P00519, M351T) | enzyme activity, inhibitor | 10 µM |  | inhibition | -21%
CCOC(=O)[C@](CC)(CCCSCCOCCOCCNC(=O)c1ccc(-c2c3ccc(=N)c(S(=O)(=O)O)c-3oc3c(S(=O)(=O)O)c(N)ccc23)c(C(=O)O)c1)NC(=O)c1ccc(C2CC2)c(Cc2ccc(F)cc2)n1 | ABL1 | enzyme activity, inhibitor | 10 µM |  | inhibition | 13%
C[C@H](NCc1ccc(-c2ccc(C(F)(F)F)cc2)cc1)C(N)=O | Tyrosine-protein kinase ABL1, phosphorylated (ABL1, Homo sapiens, UniProt P00519, E255K) | cell-free assay, competition with immobilised ligand | 1 µM |  | inhibition | 0%
Nc1ccc(/C=C/C(=O)N2CCc3c(oc4c(-c5ccc(F)cc5)cc(-c5ccc(C(=O)N6CCC(F)(F)CC6)cn5)cc34)C2)cn1 | ABL1 non-phosphorylated | binding, competition with immobilised ligand | 1 µM |  | remaining binding | 91%

Excerpt of the above:
Structure (SMILES) | target | test | conditions | how to read | measurement | result
CCOC(=O)[C@](CC)(CCCSCCOCCOCCNC(=O)c1ccc(-c2c3ccc(=N)c(S(=O)(=O)O)c-3oc3c(S(=O)(=O)O)c(N)ccc23)c(C(=O)O)c1)NC(=O)c1ccc(C2CC2)c(Cc2ccc(F)cc2)n1 | ABL1 | enzyme activity, inhibitor | 10 µM |  | inhibition | 13%
